# Published values collected from several papers.
# Each numbered part is a random draw from the data of one study; scales do not carry over between parts. Values joined by “and” are separate records of one study, mostly repeats; a detail may differ.
# UniProt Q13153, sequence (whole entry, looked up): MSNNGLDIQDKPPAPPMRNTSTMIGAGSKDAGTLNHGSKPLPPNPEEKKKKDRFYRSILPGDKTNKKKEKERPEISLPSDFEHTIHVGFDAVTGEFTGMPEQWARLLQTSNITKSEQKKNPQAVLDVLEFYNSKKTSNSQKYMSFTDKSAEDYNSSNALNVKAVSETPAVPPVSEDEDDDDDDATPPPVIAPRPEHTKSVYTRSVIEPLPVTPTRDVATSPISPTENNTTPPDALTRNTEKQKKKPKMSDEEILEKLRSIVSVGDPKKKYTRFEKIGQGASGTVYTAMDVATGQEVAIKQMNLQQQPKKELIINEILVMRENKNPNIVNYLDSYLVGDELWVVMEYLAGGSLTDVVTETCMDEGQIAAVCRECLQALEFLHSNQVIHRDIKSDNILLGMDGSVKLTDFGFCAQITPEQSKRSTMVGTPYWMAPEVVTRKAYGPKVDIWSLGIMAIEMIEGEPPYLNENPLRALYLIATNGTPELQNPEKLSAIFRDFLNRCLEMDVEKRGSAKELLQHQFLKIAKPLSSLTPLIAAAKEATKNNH
# UniProt P51451, sequence (whole entry, looked up): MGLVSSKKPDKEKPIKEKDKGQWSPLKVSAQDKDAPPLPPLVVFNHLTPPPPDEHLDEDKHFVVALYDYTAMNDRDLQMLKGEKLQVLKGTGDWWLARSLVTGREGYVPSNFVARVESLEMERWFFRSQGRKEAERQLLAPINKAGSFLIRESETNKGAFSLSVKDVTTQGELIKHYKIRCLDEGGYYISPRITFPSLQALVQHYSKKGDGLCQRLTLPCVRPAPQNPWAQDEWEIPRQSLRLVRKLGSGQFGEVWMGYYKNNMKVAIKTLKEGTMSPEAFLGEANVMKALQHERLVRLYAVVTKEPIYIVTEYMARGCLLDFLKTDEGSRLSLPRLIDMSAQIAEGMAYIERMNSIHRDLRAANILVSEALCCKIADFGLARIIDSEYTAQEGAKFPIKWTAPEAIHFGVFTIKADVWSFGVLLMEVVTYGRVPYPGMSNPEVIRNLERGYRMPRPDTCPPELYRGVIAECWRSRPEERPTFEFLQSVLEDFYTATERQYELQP
# UniProt Q8IW41, sequence (whole entry, looked up): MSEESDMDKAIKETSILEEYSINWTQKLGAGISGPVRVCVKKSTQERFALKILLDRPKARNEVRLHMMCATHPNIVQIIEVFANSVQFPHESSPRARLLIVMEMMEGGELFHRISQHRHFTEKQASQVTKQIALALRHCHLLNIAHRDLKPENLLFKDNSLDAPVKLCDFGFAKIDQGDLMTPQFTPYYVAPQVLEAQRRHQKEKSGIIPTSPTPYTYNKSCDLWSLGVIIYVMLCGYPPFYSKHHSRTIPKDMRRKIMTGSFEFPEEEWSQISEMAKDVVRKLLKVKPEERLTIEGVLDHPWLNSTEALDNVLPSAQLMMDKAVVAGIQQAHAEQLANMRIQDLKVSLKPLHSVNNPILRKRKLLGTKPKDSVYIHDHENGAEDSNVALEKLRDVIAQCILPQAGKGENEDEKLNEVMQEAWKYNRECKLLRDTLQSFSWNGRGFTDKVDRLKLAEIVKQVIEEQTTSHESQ
# UniProt P0C1S8, sequence (whole entry, looked up): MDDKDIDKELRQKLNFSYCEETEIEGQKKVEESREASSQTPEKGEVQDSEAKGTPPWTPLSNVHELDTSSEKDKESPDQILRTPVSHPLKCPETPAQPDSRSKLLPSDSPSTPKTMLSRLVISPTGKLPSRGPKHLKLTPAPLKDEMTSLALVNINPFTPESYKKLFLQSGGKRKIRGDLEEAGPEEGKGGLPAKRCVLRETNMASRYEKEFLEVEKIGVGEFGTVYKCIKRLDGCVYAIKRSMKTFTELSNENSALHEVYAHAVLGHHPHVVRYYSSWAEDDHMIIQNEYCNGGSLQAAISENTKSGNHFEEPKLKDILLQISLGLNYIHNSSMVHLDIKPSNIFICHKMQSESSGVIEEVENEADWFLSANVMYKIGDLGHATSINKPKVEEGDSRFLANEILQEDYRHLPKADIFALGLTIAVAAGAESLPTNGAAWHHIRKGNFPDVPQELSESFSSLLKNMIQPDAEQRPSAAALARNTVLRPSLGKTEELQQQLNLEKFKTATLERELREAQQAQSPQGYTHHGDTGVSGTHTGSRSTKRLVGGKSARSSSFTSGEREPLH
# UniProt P57078, sequence (whole entry, looked up): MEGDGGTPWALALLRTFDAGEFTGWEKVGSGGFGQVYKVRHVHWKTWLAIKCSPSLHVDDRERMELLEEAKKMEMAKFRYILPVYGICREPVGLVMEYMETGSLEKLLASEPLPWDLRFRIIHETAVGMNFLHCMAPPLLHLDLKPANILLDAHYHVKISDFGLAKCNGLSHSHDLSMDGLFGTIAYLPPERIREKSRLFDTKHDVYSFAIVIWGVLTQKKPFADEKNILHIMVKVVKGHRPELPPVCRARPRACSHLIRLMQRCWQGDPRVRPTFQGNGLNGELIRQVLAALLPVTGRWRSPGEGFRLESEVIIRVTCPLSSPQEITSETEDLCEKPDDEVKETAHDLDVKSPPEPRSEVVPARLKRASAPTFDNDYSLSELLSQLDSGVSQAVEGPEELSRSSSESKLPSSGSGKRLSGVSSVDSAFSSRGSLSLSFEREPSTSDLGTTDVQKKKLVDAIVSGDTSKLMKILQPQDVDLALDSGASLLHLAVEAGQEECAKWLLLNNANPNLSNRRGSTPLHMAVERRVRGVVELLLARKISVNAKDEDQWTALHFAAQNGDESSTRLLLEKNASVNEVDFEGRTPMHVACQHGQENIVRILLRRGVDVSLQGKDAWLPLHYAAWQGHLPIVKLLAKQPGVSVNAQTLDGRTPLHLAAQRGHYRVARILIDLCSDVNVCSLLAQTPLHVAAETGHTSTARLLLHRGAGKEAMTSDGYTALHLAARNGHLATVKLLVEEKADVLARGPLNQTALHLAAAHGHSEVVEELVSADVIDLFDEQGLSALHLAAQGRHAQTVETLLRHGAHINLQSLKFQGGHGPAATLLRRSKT

# Study 1
# Cell line: mouse MPNST tumor cells
# Technique: high-content immunofluorescence imaging
# Item: nuclear SOX9
# Concentration: 10 µM
# Time: 12 h
# Notes: mean of 2 replicates
# Reference: DMSO control
# Reading: higher = more nuclear SOX9
SMILES,nuclear SOX9 intensity
CNCC(O)c1ccc(OC(=O)C(C)(C)C)c(OC(=O)C(C)(C)C)c1 (centres unmarked),123 % of DMSO
CCOC(=O)C1=C(N2CCCCC2)C2(CC1=O)C(=O)N=C1C(C)=CC=CN12 (centres unmarked),94.3 % of DMSO
CN1CCN2c3ccccc3Cc3ccccc3C2C1 (centres unmarked),83.9 % of DMSO
CCOC(=O)C1Cc2ccccc2CN1C(=O)c1ccc(SC)s1 (centres unmarked),105 % of DMSO
S=c1nc[nH]c2nc[nH]c12,92 % of DMSO
CCCCC1=NC2(CCCC2)C(=O)N1Cc1ccc(-c2ccccc2-c2nnn[nH]2)cc1,101 % of DMSO and 102 % of DMSO
CN1CCC(Nc2ncc3ncnc(Nc4ccc(F)c(Cl)c4)c3n2)CC1,148 % of DMSO
CO[C@H]1O[C@@H]2O[C@@]3(C)CC[C@H]4[C@H](C)CC[C@@H]([C@H]1C)[C@@]24OO3,114 % of DMSO

# Study 2
# SMILES: COc1cc(C(=O)N2CCC(N3CCN(C)CC3)CC2)ccc1Nc1ncc2c(n1)N(C)c1ccccc1C(=O)N2C
# Technique: KINOMEscan
# Concentration: 10 µM
# Reference: DMSO control
# Reading: lower = stronger binding
target,binding
NEK4,95%
CDKL5,100%
CDK7,86%
LIMK1,95%
CAMKK1,73%
MAP4K5,100%
DRAK2,93%
PRKCI,100%
MLK2,100%
CSNK1G2,100%
PAK3,83%

# Study 3
# Target: Mitogen-activated protein kinase kinase kinase 9 (MAP3K9, Homo sapiens, UniProt P80192)
# UniProt P80192, sequence (whole entry, looked up): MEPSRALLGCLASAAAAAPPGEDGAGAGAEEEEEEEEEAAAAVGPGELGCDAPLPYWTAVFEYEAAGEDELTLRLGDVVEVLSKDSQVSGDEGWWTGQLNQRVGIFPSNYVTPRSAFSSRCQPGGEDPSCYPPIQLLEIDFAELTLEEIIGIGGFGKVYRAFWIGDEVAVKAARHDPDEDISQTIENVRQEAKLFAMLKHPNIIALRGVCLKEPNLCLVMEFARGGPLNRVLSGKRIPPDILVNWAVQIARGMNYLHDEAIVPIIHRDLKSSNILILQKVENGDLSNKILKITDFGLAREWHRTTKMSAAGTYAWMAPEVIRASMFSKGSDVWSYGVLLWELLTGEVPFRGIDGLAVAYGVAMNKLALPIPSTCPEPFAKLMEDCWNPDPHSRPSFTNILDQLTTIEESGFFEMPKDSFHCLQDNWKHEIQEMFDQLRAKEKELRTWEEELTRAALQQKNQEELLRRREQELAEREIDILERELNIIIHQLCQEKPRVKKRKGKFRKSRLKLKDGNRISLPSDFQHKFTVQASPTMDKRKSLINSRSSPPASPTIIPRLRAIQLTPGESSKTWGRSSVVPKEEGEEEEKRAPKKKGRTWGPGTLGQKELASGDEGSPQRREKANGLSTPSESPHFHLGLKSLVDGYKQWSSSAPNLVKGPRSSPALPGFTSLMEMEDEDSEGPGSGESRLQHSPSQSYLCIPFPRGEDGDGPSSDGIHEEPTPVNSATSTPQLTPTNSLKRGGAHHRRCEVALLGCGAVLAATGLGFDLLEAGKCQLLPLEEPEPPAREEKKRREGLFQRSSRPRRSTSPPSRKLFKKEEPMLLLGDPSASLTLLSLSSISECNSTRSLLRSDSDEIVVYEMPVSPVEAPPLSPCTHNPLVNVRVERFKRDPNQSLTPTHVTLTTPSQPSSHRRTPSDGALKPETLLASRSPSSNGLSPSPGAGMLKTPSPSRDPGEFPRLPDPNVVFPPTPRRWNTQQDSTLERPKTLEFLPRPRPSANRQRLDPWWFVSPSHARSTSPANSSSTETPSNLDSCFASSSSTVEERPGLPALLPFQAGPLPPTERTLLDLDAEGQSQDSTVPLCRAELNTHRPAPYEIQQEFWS
# Effect on: enzyme activity
# Action: inhibitor
# Concentration: 0.5 µM
# Reference: control
Structure (SMILES),remaining activity
CCCCc1c(-c2ccc(O)cc2)[nH]c2nccnc12,37.3%
O=C1c2ccccc2-c2nc3nnnn3nc21,63.3%
FC(F)(F)c1ccc(/C=C/c2nc(COc3ccc(CCCCn4ccnn4)cc3)co2)cc1,105%
N#CC(c1ccnc(NCCc2cccnc2)n1)c1nc2ccccc2s1 (centres unmarked),100%
CNc1cc2c(Nc3cccc(Br)c3)ncnc2cn1,94.4%
Clc1ccc(Nc2nnc(Cc3ccncc3)c3ccccc23)cc1,113%
O=C1NC(=O)/C(=C/c2ccc3c(c2)OC(F)(F)O3)S1,101%
COc1cc2c(N3CCN(C(=O)Nc4ccc(OC(C)C)cc4)CC3)ncnc2cc1OCCCN1CCCCC1,108%
C[C@@H](N)[C@H]1CC[C@H](C(=O)Nc2ccncc2)CC1,96.2%
CC(C)(C)c1nc2c3cc[nH]c(=O)c3c3cc(F)ccc3c2[nH]1,20.4%
c1cc(-c2cnn3cc(-c4ccc(OCCN5CCCCC5)cc4)cnc23)ccn1,70.5%

# Study 4
# SMILES: CC(C)(O)c1cncc(-c2nc3ccc(F)cc3n2C2CC2)c1
# Effect on: cell-free assay
# Technique: competition with immobilised ligand
# Concentration: 1 µM
target,remaining binding [%]
"EGFR (Homo sapiens, UniProt P00533, A750P/del747-749)",100
"FLT3 (Homo sapiens, UniProt P36888, ITD)",100
"Macrophage colony-stimulating factor 1 receptor, autoinhibited (CSF1R, Homo sapiens, UniProt P07333)",100
"Ribosomal protein S6 kinase alpha-3, C-terminal kinase domain (RPS6KA3, Homo sapiens, UniProt P51812)",69
"IRAK3 (Homo sapiens, UniProt Q9Y616)",100
"PRKX (Homo sapiens, UniProt P51817)",100
"EGFR (Homo sapiens, UniProt P00533, del747-752/P753S)",100
"PKN2 (Homo sapiens, UniProt Q16513)",100
"RIPK4 (Homo sapiens, UniProt P57078)",100
"FLT1 (Homo sapiens, UniProt P17948)",100
"PIK3C3 (Homo sapiens, UniProt Q8NEB9)",100
"WEE2 (Homo sapiens, UniProt P0C1S8)",100
"MAPKAPK2 (Homo sapiens, UniProt P49137)",100
"BLK (Homo sapiens, UniProt P51451)",98
"LTK (Homo sapiens, UniProt P29376)",100
"PAK1 (Homo sapiens, UniProt Q13153)",100
"MAPKAPK5 (Homo sapiens, UniProt Q8IW41)",100

# Excerpt of the above (study 4):
target,remaining binding [%]
"EGFR (Homo sapiens, UniProt P00533, del747-752/P753S)",100
"PKN2 (Homo sapiens, UniProt Q16513)",100
"RIPK4 (Homo sapiens, UniProt P57078)",100
"FLT1 (Homo sapiens, UniProt P17948)",100
"PIK3C3 (Homo sapiens, UniProt Q8NEB9)",100
"WEE2 (Homo sapiens, UniProt P0C1S8)",100
"MAPKAPK2 (Homo sapiens, UniProt P49137)",100
"BLK (Homo sapiens, UniProt P51451)",98
